Literature values as cited in several papers.
Each line is one published result; not all experiments were run side by side. ± gives the spread as reported.
Sequence of UniProt P00367 (whole entry, unmodified, looked up): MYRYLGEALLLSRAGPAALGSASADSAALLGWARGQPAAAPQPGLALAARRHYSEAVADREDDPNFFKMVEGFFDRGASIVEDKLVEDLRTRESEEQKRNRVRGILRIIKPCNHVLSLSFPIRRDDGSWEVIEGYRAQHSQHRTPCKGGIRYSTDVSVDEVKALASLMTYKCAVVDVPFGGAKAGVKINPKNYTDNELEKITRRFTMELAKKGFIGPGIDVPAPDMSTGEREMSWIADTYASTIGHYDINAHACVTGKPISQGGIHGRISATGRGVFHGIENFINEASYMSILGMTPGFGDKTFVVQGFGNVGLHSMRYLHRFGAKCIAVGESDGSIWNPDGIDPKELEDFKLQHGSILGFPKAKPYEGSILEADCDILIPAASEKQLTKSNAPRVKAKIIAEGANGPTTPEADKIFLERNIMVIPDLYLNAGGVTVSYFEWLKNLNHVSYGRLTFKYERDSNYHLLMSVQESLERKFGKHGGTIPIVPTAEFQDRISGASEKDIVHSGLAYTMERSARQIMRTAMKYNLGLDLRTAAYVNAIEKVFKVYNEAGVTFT
Sequence of UniProt P47900 (whole entry, looked up): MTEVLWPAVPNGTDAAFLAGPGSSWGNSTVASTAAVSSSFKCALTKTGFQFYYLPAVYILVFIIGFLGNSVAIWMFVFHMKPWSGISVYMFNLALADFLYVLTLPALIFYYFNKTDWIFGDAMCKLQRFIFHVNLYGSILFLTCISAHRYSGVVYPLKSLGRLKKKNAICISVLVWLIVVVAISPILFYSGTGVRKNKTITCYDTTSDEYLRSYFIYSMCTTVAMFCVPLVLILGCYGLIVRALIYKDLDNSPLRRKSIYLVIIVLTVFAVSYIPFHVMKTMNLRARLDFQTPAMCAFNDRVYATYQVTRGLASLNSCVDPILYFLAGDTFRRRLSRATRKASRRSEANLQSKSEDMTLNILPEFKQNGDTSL
Sequence of UniProt P62813 (whole entry, looked up): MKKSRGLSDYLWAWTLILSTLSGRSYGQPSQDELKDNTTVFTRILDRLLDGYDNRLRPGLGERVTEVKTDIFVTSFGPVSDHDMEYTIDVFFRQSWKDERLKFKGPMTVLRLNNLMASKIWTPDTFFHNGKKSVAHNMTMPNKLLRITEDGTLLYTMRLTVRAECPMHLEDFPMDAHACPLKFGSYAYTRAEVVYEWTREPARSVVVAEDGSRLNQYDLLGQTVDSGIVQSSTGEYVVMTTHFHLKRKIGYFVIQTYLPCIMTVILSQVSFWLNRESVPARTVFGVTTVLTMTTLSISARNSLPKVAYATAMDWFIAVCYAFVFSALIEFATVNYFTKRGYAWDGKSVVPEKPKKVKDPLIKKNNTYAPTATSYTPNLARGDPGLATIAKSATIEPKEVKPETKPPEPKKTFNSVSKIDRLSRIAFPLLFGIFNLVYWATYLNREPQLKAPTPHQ
Sequence of UniProt Q00195 (whole entry, looked up): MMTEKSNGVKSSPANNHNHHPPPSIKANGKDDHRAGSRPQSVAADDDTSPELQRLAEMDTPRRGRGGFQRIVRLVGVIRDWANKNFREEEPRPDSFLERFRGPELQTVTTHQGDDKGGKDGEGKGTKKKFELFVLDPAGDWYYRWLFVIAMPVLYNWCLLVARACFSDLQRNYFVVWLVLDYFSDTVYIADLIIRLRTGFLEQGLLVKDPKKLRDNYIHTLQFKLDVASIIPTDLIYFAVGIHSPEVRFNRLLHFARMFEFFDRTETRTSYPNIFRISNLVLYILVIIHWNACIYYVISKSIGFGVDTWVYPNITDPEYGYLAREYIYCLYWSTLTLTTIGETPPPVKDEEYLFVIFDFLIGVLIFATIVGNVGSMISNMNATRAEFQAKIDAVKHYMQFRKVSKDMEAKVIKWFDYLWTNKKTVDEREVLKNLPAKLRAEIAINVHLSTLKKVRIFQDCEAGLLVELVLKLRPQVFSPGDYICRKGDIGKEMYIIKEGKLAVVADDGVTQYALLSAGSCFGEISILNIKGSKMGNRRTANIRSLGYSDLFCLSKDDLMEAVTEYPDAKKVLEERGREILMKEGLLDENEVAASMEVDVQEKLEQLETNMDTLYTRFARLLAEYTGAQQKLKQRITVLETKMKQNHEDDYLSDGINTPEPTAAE
Sequence of UniProt P63079 (whole entry, looked up): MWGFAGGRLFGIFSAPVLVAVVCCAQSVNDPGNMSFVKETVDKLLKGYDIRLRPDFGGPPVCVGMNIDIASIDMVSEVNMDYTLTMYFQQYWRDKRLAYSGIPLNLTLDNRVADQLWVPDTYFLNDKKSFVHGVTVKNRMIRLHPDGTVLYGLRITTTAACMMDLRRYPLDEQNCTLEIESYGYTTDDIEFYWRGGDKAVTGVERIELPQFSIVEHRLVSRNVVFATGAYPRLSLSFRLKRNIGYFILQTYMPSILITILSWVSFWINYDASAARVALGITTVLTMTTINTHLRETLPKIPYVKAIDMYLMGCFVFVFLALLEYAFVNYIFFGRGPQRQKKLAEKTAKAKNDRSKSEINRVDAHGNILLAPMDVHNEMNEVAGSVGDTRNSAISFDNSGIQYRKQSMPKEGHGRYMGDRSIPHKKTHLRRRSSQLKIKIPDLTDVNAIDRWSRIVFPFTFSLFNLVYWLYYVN
Sequence of UniProt P49116 (whole entry, looked up): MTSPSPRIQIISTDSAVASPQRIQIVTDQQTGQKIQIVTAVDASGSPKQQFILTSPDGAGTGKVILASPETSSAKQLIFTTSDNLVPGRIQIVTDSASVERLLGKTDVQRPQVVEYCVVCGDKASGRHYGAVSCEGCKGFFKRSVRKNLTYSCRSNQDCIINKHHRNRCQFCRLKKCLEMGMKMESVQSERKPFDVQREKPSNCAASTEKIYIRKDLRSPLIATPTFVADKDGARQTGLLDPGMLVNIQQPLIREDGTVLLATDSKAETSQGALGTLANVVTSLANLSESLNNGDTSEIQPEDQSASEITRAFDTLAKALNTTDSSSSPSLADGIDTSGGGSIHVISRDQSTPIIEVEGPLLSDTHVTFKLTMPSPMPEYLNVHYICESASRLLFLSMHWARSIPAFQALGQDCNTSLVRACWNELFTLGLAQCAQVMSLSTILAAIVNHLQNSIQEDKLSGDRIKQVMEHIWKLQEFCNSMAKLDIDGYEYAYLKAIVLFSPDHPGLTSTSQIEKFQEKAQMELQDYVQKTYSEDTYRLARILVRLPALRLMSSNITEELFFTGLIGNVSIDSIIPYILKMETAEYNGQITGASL
Sequence of UniProt P29275 (whole entry, looked up): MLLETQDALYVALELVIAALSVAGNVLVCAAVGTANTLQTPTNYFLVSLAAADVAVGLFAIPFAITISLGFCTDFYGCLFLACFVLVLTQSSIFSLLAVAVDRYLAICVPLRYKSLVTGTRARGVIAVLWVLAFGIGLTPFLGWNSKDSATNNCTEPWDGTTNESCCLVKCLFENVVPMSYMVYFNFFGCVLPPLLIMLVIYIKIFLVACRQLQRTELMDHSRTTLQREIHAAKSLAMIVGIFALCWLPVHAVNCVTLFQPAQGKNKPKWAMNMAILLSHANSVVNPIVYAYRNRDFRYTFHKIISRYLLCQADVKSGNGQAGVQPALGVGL
Sequence of UniProt P23270 (whole entry, looked up): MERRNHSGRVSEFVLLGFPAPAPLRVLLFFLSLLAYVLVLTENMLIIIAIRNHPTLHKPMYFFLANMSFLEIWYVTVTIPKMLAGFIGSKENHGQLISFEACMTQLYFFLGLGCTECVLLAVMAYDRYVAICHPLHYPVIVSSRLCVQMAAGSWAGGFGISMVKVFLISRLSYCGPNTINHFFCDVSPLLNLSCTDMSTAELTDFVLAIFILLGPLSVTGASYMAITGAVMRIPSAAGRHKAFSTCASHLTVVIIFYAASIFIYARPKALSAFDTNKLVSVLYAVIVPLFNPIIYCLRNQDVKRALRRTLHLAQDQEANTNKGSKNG
Sequence of UniProt P02730 (whole entry, looked up): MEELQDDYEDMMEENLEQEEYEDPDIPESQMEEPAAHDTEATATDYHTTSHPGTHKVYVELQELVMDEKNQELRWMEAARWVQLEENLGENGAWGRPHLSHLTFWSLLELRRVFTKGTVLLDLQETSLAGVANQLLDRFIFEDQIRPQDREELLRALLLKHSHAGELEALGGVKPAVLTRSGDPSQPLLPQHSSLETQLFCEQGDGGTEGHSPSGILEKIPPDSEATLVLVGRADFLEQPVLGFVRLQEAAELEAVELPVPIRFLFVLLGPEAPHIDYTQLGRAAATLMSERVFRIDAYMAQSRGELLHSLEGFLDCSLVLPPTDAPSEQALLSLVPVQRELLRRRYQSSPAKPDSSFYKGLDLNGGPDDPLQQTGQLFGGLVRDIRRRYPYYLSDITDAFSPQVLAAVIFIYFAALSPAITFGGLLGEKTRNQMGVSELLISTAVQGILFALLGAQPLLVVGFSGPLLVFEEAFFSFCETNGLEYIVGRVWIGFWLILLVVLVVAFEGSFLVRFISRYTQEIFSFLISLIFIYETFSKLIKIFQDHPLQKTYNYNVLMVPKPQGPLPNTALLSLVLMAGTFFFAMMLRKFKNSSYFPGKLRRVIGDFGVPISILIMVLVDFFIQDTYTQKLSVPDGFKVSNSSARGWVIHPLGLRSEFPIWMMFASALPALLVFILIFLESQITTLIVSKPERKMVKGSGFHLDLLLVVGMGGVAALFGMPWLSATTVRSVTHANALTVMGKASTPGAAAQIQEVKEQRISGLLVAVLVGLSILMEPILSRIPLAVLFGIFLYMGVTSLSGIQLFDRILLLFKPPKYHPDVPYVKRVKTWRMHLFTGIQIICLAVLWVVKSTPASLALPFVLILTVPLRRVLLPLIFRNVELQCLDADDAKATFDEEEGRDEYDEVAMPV

Cc1ccc(NC(=O)/C=C/c2ccco2)cc1  EC50 (nicotinic acetylcholine receptor alpha7; agonist): 5 to 12 µM
COc1ccc2[nH]cc3c(=O)n(-c4ccc(C#N)cc4)nc-3c2c1  EC50 (Gamma-aminobutyric acid receptor subunit alpha-1/beta-3 (Gabra1/Gabrb3, Rattus norvegicus, UniProt P62813+P63079); positive allosteric modulator; added: GABA EC3): 1 µM
CN(C)C/C=C/C(=O)Nc1cc2c(Nc3ccc(F)c(Cl)c3)ncnc2cc1O[C@H]1CCOC1  beating cessation concentration (hiPSC-derived cardiomyocytes; 72 h, tested 0 to 100 µM): 3.7 µM
Nc1nc2c(ncn2[C@@H]2O[C@@H]3COP(=O)(O)O[C@H]3[C@H]2O)c(=O)[nH]1  EC50 (Cnga2 (Rattus norvegicus, UniProt Q00195); channel current, agonist, inside-out patch clamp; Xenopus oocytes; holding +100 mV): 2.1 µM
Nc1sc2c(c1C(=O)c1ccc(Cl)cc1)CCCC2  EC50 (adenosine A1 receptor; positive allosteric modulator): 6.8 µM
O=P(O)(O)O[C@@H]1[C@H](O)[C@H](O)[C@@H](OP(=O)(O)O)[C@H](OP(=O)(O)O)[C@H]1O  Kd (IP3R1 N-terminal domain residues 1-604; binding, radioligand competition; pH 8.3, added: [3H]IP3): 0.0017 ± 0.0002 µM
Cc1ccc(O)cc1-n1c(N)c(C(N)=O)c2nc3ccccc3nc21  EC50 (EPHB4 (Homo sapiens, UniProt P54760); receptor phosphorylation, inhibitor; MEF overexpressing EPHB4): 0.0054 µM
Nc1ncnc2c1ncn2[C@@H]1O[C@H](COP(=O)(O)OP(=O)(O)O)[C@@H](O)[C@H]1O  EC50 (GLUD1 (Homo sapiens, UniProt P00367, H507Y); enzyme activity, activator; mutant enzyme, reductive amination): 9.1 µM
CC1=C(/C=C/C(C)=C/C=C/C(C)=C/C(=O)O)C(C)(C)CCC1  EC50 (Nuclear receptor subfamily 2 group C member 2 (Homo sapiens, UniProt P49116); receptor activation, agonist): 23.8 µM
[Ca+2]  EC50 (cGMP-gated channel (rod); shift in cGMP K1/2, modulator): ~0.05 µM
Nc1nc2c(nc(Sc3ccc(Cl)cc3)n2C2OC3COP(O)(=S)OC3C2O)c(=O)[nH]1 (stereo not shown)  Km or Ki (PDE10; cyclic nucleotide hydrolysis, substrate or inhibitor, isothermal titration calorimetry): 38.6 µM
O=C(O)Cc1ccc(O)cc1  EC50 (Olfactory receptor class A-like protein 1 (Zebrafish, UniProt A0A0R4IM31); agonist; Danio rerio): 2 µM
[I-].[K+]  Kd (SLC4A1 (Homo sapiens, UniProt P02730); Cl- exchange, inhibitor; pH 8, citrate replacing chloride): 950 to 1190 µM
CCn1nnc([C@H]2O[C@@H](n3cnc4c(NCc5cccc(I)c5)nc(Cl)nc43)[C@H](O)[C@@H]2O)n1  EC50 (ADORA2B (Homo sapiens, UniProt P29275); adenylyl cyclase activation, agonist): 0.834 µM
CC(C)[C@H](NC(=O)CNC(=O)[C@H](CC(N)=O)NC(=O)[C@H](CCCNC(=N)N)NC(=O)[C@H](Cc1ccccc1)NC(=O)[C@@H](N)CO)C(N)=O  EC50 (NPSR1 (Homo sapiens, UniProt Q6W5P4); calcium mobilization, agonist; receptor variant): 0.0402 ± 0.0116 µM
CCCCCC=O  EC50 (Olfactory receptor 226 (Olr226, Rattus norvegicus, UniProt P23270); agonist; rat olfactory neurons expressing OR-I7): 1740 ± 440 µM
Nc1ncnc2c1ncn2[C@@H]1O[C@H](COP(=O)(O)OP(=O)(O)OP(=O)(O)O)[C@@H](N)[C@H]1O  EC50 (P2Y purinoceptor 1 (P2RY1, Homo sapiens, UniProt P47900); phospholipase C activation, agonist; COS-7): 10 µM
CC(C)C[C@H](N)C(=O)O  EC50 (GLUD1 (Homo sapiens, UniProt P00367); enzyme activity, allosteric activator; reductive amination): 640 ± 110 µM
Nc1nc2c(nc(Br)n2[C@@H]2O[C@@H]3COP(=O)(O)O[C@H]3[C@H]2O)c(=O)[nH]1  Km or Ki (PDE1A; cyclic nucleotide hydrolysis, substrate or inhibitor, isothermal titration calorimetry): 47.2 µM

Repeated from above:
[I-].[K+]  Kd (SLC4A1 (Homo sapiens, UniProt P02730); Cl- exchange, inhibitor; pH 8, citrate replacing chloride): 950 to 1190 µM
